Results from different studies.
Compare with care: the assays were run in different laboratories. Numbers after ± are the reported error.

CSCC[C@H](NC(=O)[C@H](N)Cc1ccccc1)C(=O)N[C@@H](CCCNC(=N)N)C(=O)N[C@@H](Cc1c[nH]c2ccccc12)C(=O)N[C@@H](CO)C(=O)N[C@@H](CCCNC(=N)N)C(=O)N[C@@H](CCCCN)C(=O)N[C@@H](CCSC)C(=O)N1CCC[C@H]1C(=O)N[C@@H](CS)C(=O)N[C@H](C(=O)N[C@@H](CO)C(N)=O)C(C)C
IC50 (SUP-T1; Erk phosphorylation, inhibitor, phospho flow cytometry; added: CXCL12 100 ng/mL): > 100 µM

CCCCN1C[C@H](O)[C@@H](O)[C@@H](O)[C@H]1CO
IC50 (sample BA patient fibroblasts; Gb3 level lowering, LC-MS/MS, item: Gb3 d18:1/20:0; 216 h): 26 µM

Cc1cc(N2CCc3c(c(C)nn3CC34CCC(NC(=O)[C@@H]5COCCN5)(CC3)CC4)C2)c2cnn(C)c2n1
IC50 (human PBMC; IFN-driven gene expression, inhibitor, qRT-PCR, item: IRF7 mRNA; two donors, added: ssRNA): 0.001 ± 0.0003 µM

Cc1c(C)c2c(c(C)c1O)CCC(C)(COc1ccc(CC3SC(=O)NC3=O)cc1)O2 (stereo not shown)
IC50 (iPSC-derived hepatocytes B2; cell viability; 48 h, differentiation day 23): 43 µM

COc1cc(F)ccc1-c1cc(Nc2cc(CS(C)(=N)=O)ccn2)ncc1F (stereo not shown)
IC50 (patient-derived organoid sample B; organoid viability; human; 96 h): 0.186 µM

Oc1ccc2c3c(cnc2c1)-c1ccc(C(F)(F)F)cc1O[C@@H]3c1ccc(OCCN2CC(CF)C2)cc1
IC50 (ER-negative breast cancer cells; cell growth; two doubling times): > 2 µM

COc1ccc(F)cc1C(=O)NCc1ccc(-c2nn([C@@H](C)C(F)(F)F)c(N)c2C(N)=O)cc1
IC50 (Rec1; calcium flux; added: anti-IgM): 0.0086 µM

COc1cccc2c1C(=O)c1c(O)c3c(c(O)c1C2=O)C[C@@](O)(C(=O)CO)C[C@@H]3O[C@H]1C[C@H](N)[C@H](O)[C@H](C)O1
IC50 (MCF7/ADR; cell viability, MTT; 48 h): 5.62 ± 0.34 µg/mL

COc1ccc2nc(NC(=O)Nc3ccccc3)sc2c1
IC50 (AC16 cardiomyocytes; mitochondrial membrane potential decrease; 1 h): 1.73 ± 0.12 µM

COc1cccc2c1C(=O)c1c(O)c3c(c(O)c1C2=O)C[C@@](O)(C(=O)CO)C[C@@H]3O[C@H]1C[C@H](N)[C@H](O)[C@H](C)O1
IC50 (B16-F10; cell growth; 96 h): 0.145 µM

Cn1nnc2c(C(N)=O)ncn2c1=O
IC50 (sample A PDX; neurosphere formation; added: talazoparib 10 nM): 0.081 µM

COc1ccc2cc(/C=N/n3c(C)nc4ccc(Br)cc4c3=O)ccc2c1
IC50 (LoVo; cytotoxicity, LDH release; 24 h, 50% viability reduction): 682 ± 8.38 µM

O=C(O)COCC(=O)O
IC50 (iPSC-derived hepatocytes B2; cell viability; 24 h, differentiation day 23): 9410 µM

CSCC[C@H](NC(=O)CN)C(=O)N[C@@H](CCCNC(=N)N)C(=O)N[C@@H](Cc1c[nH]c2ccccc12)C(=O)N[C@@H](CO)C(=O)N[C@@H](CCCNC(=N)N)C(=O)N[C@@H](CCCCN)C(=O)N[C@@H](CCSC)C(=O)N1CCC[C@H]1C(=O)N[C@@H](CS)C(=O)N[C@H](C(=O)N[C@@H](CO)C(N)=O)C(C)C
IC50 (SUP-T1; Erk phosphorylation, inhibitor, phospho flow cytometry; added: CXCL12 100 ng/mL): > 100 µM

CCn1ncc2c1-c1cnc(N)c(c1)O[C@H](C)c1cc(F)ccc1-c1nn(C)nc1C2
IC50 (NCI-H1975, EGFR L858R/T790M; cell viability): > 10 µM

Cc1c(C(=O)O)ccc2c3n(nc12)[C@@H]1[C@H](C3)N(CC2CC2)[C@@]2(C(=O)Nc3cc(Cl)ccc32)[C@H]1c1cccc(Cl)c1F
IC50 (Rh18 (MDM2-amplified); cell growth, alamarBlue; 120 h): 0.01 µM

COC(=O)CN=c1scc(-c2ccccc2)n1-c1ccc(OC)cc1
IC50 (Panc 03.27; cell viability, MTT; 72 h): 11.5 µM

CCCCCCCC[N+](CCCCCCCC)(CCCCCCCC)CCCCCCCC
IC50 (differentiated LUHMES MT1G::HiBiT-G2 neurons; cell viability; 24 h): 0.32 µM

COc1c(Cl)cccc1Nc1c(-c2ccncc2OC[C@@H]2COCCO2)[nH]c2c1C(=O)NCC2
IC50 (Ba/F3 expressing HER2 wild type; cell growth, inhibitor, CellTiter-Glo): 0.0053 µM

CSCC[C@H](NC(=O)[C@H](CCCCN)NC(=O)[C@H](CCCNC(=N)N)NC(=O)[C@H](CO)NC(=O)[C@H](Cc1c[nH]c2ccccc12)NC(=O)[C@H](CCCNC(=N)N)NC(=O)[C@@H](CC(C)C)NC(=O)[C@@H](N)CCSC)C(=O)N1CCC[C@H]1C(=O)N[C@@H](CS)C(=O)N[C@H](C(=O)N[C@@H](CO)C(N)=O)C(C)C
IC50 (SUP-T1; Erk phosphorylation, inhibitor, phospho flow cytometry; added: CXCL12 100 ng/mL): > 100 µM

C=CC(=O)Nc1cc(Nc2nccc(-c3cn(C)c4ccccc34)n2)c(OC)cc1N(C)CCN(C)C
IC50 (PC-9; cell growth; 72 h): 0.006 ± 0.0024 µM

CSCC[C@H](NC(=O)[C@H](CCCCN)NC(=O)[C@H](CCCNC(=N)N)NC(=O)[C@H](CO)NC(=O)[C@H](Cc1c[nH]c2ccccc12)NC(=O)[C@H](CCCNC(=N)N)NC(=O)[C@H](CC(C)C)NC(=O)[C@@H](CO)NC(C)=O)C(=O)N1CCC[C@H]1C(=O)N[C@@H](CS)C(=O)N[C@H](C(=O)N[C@@H](CO)C(N)=O)C(C)C
IC50 (SUP-T1; Erk phosphorylation, inhibitor, phospho flow cytometry; added: CXCL12 100 ng/mL): > 100 µM

Cc1nc(NC(=O)N2CCC[C@H]2C(N)=O)sc1-c1ccnc(C(C)(C)C(F)(F)F)c1
IC50 (BFTC-909; growth rate inhibition, CellTiter-Glo; 120 h): 7.07 µM

CCCCC(CC)COC(=O)c1ccc(O)cc1 (stereo not shown)
IC50 (AC16 cardiomyocytes; mitochondrial membrane potential decrease; 1 h): 11.6 ± 0.76 µM

CC(C)C[C@H](NC(=O)[C@@H](NC(=O)[C@@H]1CCCN1C(=O)[C@@H](NC(=O)[C@H](CO)NC(=O)[C@@H](NC(=O)[C@H](CCC(N)=O)NC(=O)[C@@H]1CCCN1C(=O)[C@@H](NC(=O)[C@H](CCCCN)NC(=O)[C@H](CCCCN)NC(=O)[C@@H](NC(=O)[C@H](Cc1ccc(O)cc1)NC(=O)[C@H](CCCNC(=N)N)NC(=O)[C@@H](NC(=O)[C@@H](N)CC(C)C)C(C)C)[C@@H](C)O)C(C)C)C(C)C)[C@@H](C)O)[C@@H](C)O)C(=O)O
IC50 (SUP-T1; Erk phosphorylation, inhibitor, phospho flow cytometry; added: CXCL12 100 ng/mL): > 100 µM
